Measured values from different studies.
Parts stem from different laboratories: compare values within a part only. ± marks the error that the study gave.

Set 1
Compound: Cc1cc(OCc2nnc(SC3CCCC3)n2-c2cccnc2)ccc1-c1ccc(S(C)(=O)=O)cc1
RXF 393 — CC50: 6.26 µM.
SR — CC50: > 100 µM.
It gave > 100 µM for CC50 (EKVX).

Further values, each from its own experiment
EPHX2: Bifunctional epoxide hydrolase 2 (EPHX2, Homo sapiens, UniProt P34913)
Chain of UniProt P34913 (whole entry, looked up): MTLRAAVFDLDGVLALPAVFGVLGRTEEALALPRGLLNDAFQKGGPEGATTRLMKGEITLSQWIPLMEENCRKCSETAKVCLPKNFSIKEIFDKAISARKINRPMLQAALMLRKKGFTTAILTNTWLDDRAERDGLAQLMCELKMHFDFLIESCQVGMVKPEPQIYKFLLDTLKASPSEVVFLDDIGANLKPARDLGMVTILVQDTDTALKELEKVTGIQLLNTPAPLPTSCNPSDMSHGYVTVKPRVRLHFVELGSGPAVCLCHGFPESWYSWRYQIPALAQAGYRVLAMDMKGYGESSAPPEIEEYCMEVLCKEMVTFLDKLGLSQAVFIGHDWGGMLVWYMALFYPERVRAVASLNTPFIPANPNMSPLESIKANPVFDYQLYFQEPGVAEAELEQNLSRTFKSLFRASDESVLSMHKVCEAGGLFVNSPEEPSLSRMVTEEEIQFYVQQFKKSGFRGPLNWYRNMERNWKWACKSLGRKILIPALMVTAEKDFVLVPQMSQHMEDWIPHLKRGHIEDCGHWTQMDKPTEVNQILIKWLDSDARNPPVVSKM
The kcat of `pyc (Rhizobium etli, UniProt Q2K340)` is reported as 0.00967 ± 0.000167 s⁻¹ (CC(=O)OP(=O)(O)O; steady-state kinetics; pH 7.5, 25 °C).
`O=C(Nc1ccc(-c2cnc3ccccc3c2)cc1)C1CCN(Cc2ccc([N+](=O)[O-])cc2)CC1` has an IC50 of 0.0364 µM (EPHX2).
`Cc1ccccc1S(=O)(=O)Nc1c(N2CCC(NC(=O)Nc3ccc(Cl)c(F)c3)CC2)c(=O)c1=O` has an IC50 of 0.0062 ± 0.001 µM (EPHX2).
